Results collected from several papers.
Every numbered part comes from another study and shows a few of its results, in no order.

Set 1
Target: Interferon regulatory factor 7, full length, phosphomimetic (IRF7, Homo sapiens, UniProt Q92985, residues 1-503, S471D/S472D/S475D/S476D/S477D/S483D/S484D/S487D)
Method: protein-binding microarray
Form: double-stranded DNA, one strand shown
Matrix: in vitro
Concentration: 2200 nM top
Setting: 60-bp whole probe
With: salmon DNA 0.4 mg/ml
Reference: random background probes
Direction: higher = stronger binding
Construct (chain): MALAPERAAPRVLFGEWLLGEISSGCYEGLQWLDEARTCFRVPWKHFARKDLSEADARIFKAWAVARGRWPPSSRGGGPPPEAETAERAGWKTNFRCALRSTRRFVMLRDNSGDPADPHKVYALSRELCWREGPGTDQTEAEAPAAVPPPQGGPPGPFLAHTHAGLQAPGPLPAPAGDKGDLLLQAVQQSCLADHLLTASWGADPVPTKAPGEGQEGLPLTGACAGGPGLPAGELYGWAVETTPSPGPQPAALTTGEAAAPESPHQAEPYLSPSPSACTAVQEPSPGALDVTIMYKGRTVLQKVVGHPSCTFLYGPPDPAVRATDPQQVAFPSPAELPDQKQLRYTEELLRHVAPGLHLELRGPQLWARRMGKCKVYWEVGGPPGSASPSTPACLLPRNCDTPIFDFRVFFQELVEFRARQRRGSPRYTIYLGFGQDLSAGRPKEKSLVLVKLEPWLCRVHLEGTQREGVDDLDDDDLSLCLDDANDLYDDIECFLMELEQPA
Sequence	fitted relative affinity
GCCTAGCACGTAGGTCTCGGTCTCGGTTAGTGCTAGGTCTTGATTCGCTTGACGCTGCTG	0.534 z-score
GCCTAGCACTCATTTTTCATTGTTTTACTGTGCTAGGTCTTGATTCGCTTGACGCTGCTG	2.56 z-score
GCCTAGCACTTAGAACTGAGTTTCTATTAGTGCTAGGTCTTGATTCGCTTGACGCTGCTG	0.817 z-score
GCCTAGCACGACGGTTTCGCGTTTCGGGACGTGCTAGTCTTGATTCGCTTGACGCTGCTG	5.44 z-score

Set 2
Target: Sal-like protein 4, full length isoform A (SALL4, Homo sapiens, UniProt Q9UJQ4, residues 1-1053)
UniProt Q9UJQ4, sequence (whole entry, looked up): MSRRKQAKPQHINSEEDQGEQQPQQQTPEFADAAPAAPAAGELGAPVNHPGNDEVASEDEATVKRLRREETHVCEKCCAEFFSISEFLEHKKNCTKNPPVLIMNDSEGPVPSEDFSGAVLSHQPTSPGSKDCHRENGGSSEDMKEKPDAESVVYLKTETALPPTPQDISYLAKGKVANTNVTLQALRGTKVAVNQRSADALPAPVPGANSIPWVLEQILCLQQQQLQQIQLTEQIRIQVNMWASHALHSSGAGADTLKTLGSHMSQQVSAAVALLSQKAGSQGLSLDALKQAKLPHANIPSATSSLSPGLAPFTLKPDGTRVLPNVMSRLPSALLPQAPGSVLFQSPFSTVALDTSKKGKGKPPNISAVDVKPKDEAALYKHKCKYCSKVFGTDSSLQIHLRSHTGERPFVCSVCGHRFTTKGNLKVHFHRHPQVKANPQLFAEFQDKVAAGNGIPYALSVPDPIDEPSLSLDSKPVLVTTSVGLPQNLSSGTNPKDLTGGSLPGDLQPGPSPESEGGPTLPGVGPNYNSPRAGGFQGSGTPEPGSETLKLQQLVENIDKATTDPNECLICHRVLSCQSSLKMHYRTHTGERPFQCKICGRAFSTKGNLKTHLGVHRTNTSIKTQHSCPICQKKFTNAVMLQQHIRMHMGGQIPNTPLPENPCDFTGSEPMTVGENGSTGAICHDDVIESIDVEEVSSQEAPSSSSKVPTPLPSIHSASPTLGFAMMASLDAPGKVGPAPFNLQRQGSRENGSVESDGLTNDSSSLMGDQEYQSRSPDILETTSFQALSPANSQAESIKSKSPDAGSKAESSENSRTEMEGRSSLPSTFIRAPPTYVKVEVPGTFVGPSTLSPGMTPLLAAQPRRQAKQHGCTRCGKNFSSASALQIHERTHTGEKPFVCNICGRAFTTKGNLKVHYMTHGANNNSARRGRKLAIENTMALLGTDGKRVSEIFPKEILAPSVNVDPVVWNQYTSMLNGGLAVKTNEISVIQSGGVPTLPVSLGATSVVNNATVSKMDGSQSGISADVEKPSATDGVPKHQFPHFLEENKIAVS
Method: universal PBM
Form: double-stranded DNA, one strand shown
Matrix: in vitro
Concentration: 600 nM
Setting: 8-mer, flanks averaged, mean of replicates
Direction: higher = stronger binding
Sequence	E-score
ACTTTGAG	0.00272
CACTATTC	0.159
CTTAACTC	0.0223
CAGTTGGA	-0.0839

Mixed results
Substance	target	assay	system	setting	scale	endpoint	value
CCGGTGCA	Histone acetyltransferase KAT6A, winged helix 2, GST fusion (KAT6A, Homo sapiens, UniProt Q92794, residues 85-181)	protein binding microarray	double-stranded DNA, one strand shown, in vitro	not given, 8-mer, flanks averaged, mean of 2 arrays, mostly near background	reference: not given, higher = stronger binding	E-score	0.116
PhoQ, residues 284 288 289 292 302 303 AEGLLW	PhoP, residues 12 14 15 18 19 DLLYY (Escherichia coli, UniProt P23836)	Sort-seq, refers to: YFP reporter	E. coli	PhoQ-PhoP variant library, with: 10 µM Mg2+	reference: high Mg2+ state, higher = stronger signaling	fold induction	1.04
CTCTTCGA	Histone acetyltransferase KAT6A, winged helix 1, GST fusion (KAT6A, Homo sapiens, UniProt Q92794, residues 1-85)	protein binding microarray	double-stranded DNA, one strand shown, in vitro	not given, 8-mer, flanks averaged, mean of 2 arrays, mostly near background	reference: not given, higher = stronger binding	E-score	0.0815

Excerpt of the above (set 2):
Sequence	E-score
CTTAACTC	0.0223
ACTTTGAG	0.00272
